Results collected from several papers.
Protocols differ between the studies behind these lines. “And” joins repeats or separate records; there may be more than shown. ± gives the spread as reported.
ZBTB11/CRBN: ZBTB11/CRBN (Homo sapiens, UniProt O95625+Q96SW2)
STK38: Serine/threonine-protein kinase 38 (STK38, Homo sapiens, UniProt Q15208)
T1: RNA aptamer; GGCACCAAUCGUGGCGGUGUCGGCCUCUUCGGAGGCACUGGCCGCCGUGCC

Compound | tested on | assay | system | setting | how to read | endpoint | result
CN(CCO)c1ccc(/C=C(\C#N)c2ccc(C#N)cc2)cc1 | T1, RNA aptamer | fluorescence titration, Hill fit | – | apparent | – | Kd | 0.821 µM
Nc1nc2c(ncn2[C@H]2C[C@H](O)[C@@H](COP(=O)(O)OP(=O)(O)O)O2)c(=O)[nH]1 | – | binding, equilibrium dialysis LC-MS | – | 5 µM, thermostabilized A2AR-BRIL construct | baseline: no-protein control, direction not given | z-scored log2 fold change | -0.639
O=C(C[C@@H](C(F)F)n1ccc(F)n1)N1CCC(O)(Cn2cnc3c(cnn3-c3ccc(F)cc3)c2=O)CC1 | Ubiquitin carboxyl-terminal hydrolase 7 (USP7, Homo sapiens, UniProt Q93009, V517A) | isothermal titration calorimetry | – | concentration not given, USP7 V517A | – | binding enthalpy | -15.7 ± 0.368 kcal/mol
[O-][S+]1CCCCS1 (stereo not drawn) | Superoxide dismutase [Cu-Zn] (SOD1, Homo sapiens, UniProt P00441, G94A) | item: SOD1 dimer | SOD1 G93A transgenic mice, brain | sc, 30 mg/kg twice daily | – | target engagement | 84.7%
CC(C)C[C@H](NC(=O)C[C@H](O)[C@H](CC(C)C)NC(=O)[C@H](Cc1c[nH]cn1)NC(=O)CNC(=O)[C@@H](NC(=O)[C@H](C)NC(=O)[C@H](Cc1c[nH]c2ccccc12)NC(=O)[C@H](CCC(N)=O)NC(=O)[C@@H](Cc1ccccc1)NC(=O)COCCOCCNC(=O)CCC(C(=O)O)N1CCN(CC(=O)O)CCN(CC(=O)O)CC1)C(C)C)C(N)=O (stereo partly drawn) [lutetium-177 labelled] | – | – | female BALB/c nu/nu mice, intestines | intravenous, 50 pmol, 24 h | – | tissue uptake | 0.03 ± 0.02 %ID/g
N#Cc1ccc2c(-c3ccncc3)c(-c3ccc(F)cc3)nn2c1 | Serine/threonine-protein kinase NLK (NLK, Homo sapiens, UniProt Q9UBE8) | inhibitor, NanoBRET | HEK293 | 1.0 µM | – | target occupancy | 40 to 70%
O=C1CCC(N2C(=O)C=C(Nc3cccc(C4(NCCc5ccc(C(F)(F)F)c(Cl)c5)CCC4)c3)C2=O)C(=O)N1 (stereo not drawn) | ZBTB11/CRBN | protein degradation, degrader, HiBiT luminescence | MOLT-4 | – | – | Dmax | 78%
O=C(O)c1ccc(Nc2ncc3c(n2)-c2ccc(Cl)cc2C(c2c(F)cccc2F)=NC3)cc1 | MST3(h) | kinase activity | – | 1 µM | – | remaining activity | 107%
N=C(N)Nc1nc2ccccc2[nH]1 | Voltage-gated hydrogen channel 1 (HVCN1, Homo sapiens, UniProt Q96D96, F149A) | proton current, inhibitor, inside-out patch clamp | – | – | – | Hill coefficient | 0.89 ± 0.05
NS(=O)(=O)c1ccc(NCC(=O)O)cc1 | Ubiquitin carboxyl-terminal hydrolase 39, ZnF-UBD domain (Homo sapiens, UniProt Q53GS9) | – | – | – | – | Kd | > 1000 µM
[H]/N=C(/N)NCC(=O)O | Sodium- and chloride-dependent taurine transporter (SLC6A6, Homo sapiens, UniProt P31641, L306A) | binding, microscale thermophoresis | – | 250 µM, room temperature, added: 50 nM labelled protein | higher = more binding | normalised MST signal | -0.0141
CCc1oc2ccccc2c1C(=O)c1cc(Br)c(O)c(Br)c1 | Solute carrier family 22 member 12 (SLC22A12, Homo sapiens, UniProt Q96S37) | inhibitor | HEK-293T | 3 µM, 10 min, 37 °C, added: [14C]urate 10 µM | – | normalized urate uptake | 0.172 and 0.175 and 0.183
Oc1ccc(/C=C/c2cc(O)cc(O)c2)cc1 | O-methyltransferase (Sorghum bicolor, UniProt A0A1B6PFV1) | ITC | – | concentration not given, added: MTA+ | – | binding stoichiometry | 0.73 ± 0.001
CC[C@H](C)[C@H](N)C(=O)O | – | binding, equilibrium dialysis LC-MS | – | 5 µM, thermostabilized A2AR-BRIL construct | baseline: no-protein control, direction not given | z-scored log2 fold change | 0.194
CC(=O)N[C@H](C(=O)N1C[C@H](O)C[C@H]1C(=O)NCc1ccc(-c2scnc2C)cc1)C(C)(C)SCCCCCCNC(=O)C[C@@H]1N=C(c2ccc(Cl)cc2)c2c(sc(C)c2C)-n2c(C)nnc21 | BRD2/VHL, BD2; with VCB (Homo sapiens, UniProt P25440+P40337) | ITC | – | 25 °C, PROTAC:Brd2^BD2 | baseline: Kd binary over Kd ternary | cooperativity | 4.1
NCCCC(=O)O | Sodium- and chloride-dependent taurine transporter (SLC6A6, Homo sapiens, UniProt P31641, Y138A) | binding, microscale thermophoresis | – | 62.5 µM, room temperature, added: 50 nM labelled protein | higher = more binding | normalised MST signal | 0.0395
CCCCCCCC/C=C\CCCCCCCC(=O)NCCc1ccc(O)c(O)c1 | Transient receptor potential cation channel subfamily V member 1 (Trpv1, Mus musculus, UniProt Q704Y3, S511A) | ion current, agonist, whole-cell patch clamp | – | S511A | baseline: 3 mM 2-APB | maximal open probability | 0.77 ± 0.14
COc1cc(C(=O)NCC2(N(C)C)CCCC2)cc(OC)c1OCc1ccccc1 | Sodium- and chloride-dependent glycine transporter 2 (Homo sapiens, UniProt Q9Y345) | isothermal titration calorimetry | – | 500 nM to 50 µM, added: protein 21 µM | – | binding | no binding
O=C(CCCCCCC(=O)Nc1ccccc1)NO | Histone deacetylase 8 (HDAC8, Homo sapiens, UniProt Q9BY41) | ITC | phosphate buffer | concentration not given, pH 7.5 | – | binding stoichiometry | 0.8
CC[C@@H]1[C@H](F)C(=O)N[C@@H]1COc1nccc2cc(C(N)=O)c(OC)cc12 | STK38 | ATP-site probe binding, ActivX profiling | THP-1 cell lysate | 0.01 mM, Lys2 site | – | inhibition | -3.8%
CCCCc1nc2c(s1)c(N)nc1ccccc12 | Toll-like receptor 7 (TLR7, Homo sapiens, UniProt Q9NYK1) | reporter gene, agonist, NF-κB reporter | HEK-Blue TLR7 | – | – | EC50 | inactive
O=c1nc(SCc2cc(F)cc(C(F)(F)F)c2)nc(SCc2csc3ccc(Cl)cc23)[nH]1 | DNA topoisomerase 2-beta (TOP2B, Homo sapiens, UniProt Q02880) | decatenation | – | 1.95 µM, replicate 1 | – | decatenated DNA | 100%
O=C(NC1CCC1)c1ccc2nc(-c3cccc(NS(=O)(=O)NCCN4CCCCC4)c3)cn2c1 | Mast/stem cell growth factor receptor Kit (KIT, Homo sapiens, UniProt P10721, V559D) | enzyme activity | – | 10 µM | – | remaining activity | 97%
CC(C)CCC[C@@H](C)[C@H]1CC[C@H]2[C@@H]3CC=C4C[C@@H](O)CC[C@]4(C)[C@H]3CC[C@]12C | Cholesterol side-chain cleavage enzyme, mitochondrial (CYP11A1, Homo sapiens, UniProt P05108) | substrate binding saturation | – | added: adrenodoxin 40-fold excess | baseline: without adrenodoxin | ΔAmax increase | 3 fold
CC[C@H](C)[C@@H]1NC(=O)[C@H](C)NC(=O)[C@H]([C@@H](C)CC)NC(=O)[C@H](CCC(N)=O)NC(=O)[C@H](C)NC(=O)[C@H](CCCNC(=N)N)NC(=O)[C@H](C(C)C)NC(=O)[C@H](CC(C)C)NC(=O)[C@H](CCC(=O)O)NC(=O)[C@H](CCCNC(=N)N)NC(=O)CNC(=O)[C@@H](NC(=O)[C@H](CC(C)C)NC(=O)[C@H](CCCCN)NC(=O)[C@@H](NC(=O)[C@@H](NC(=O)[C@H](CCC(=O)O)NC(=O)[C@H](CCC(=O)O)NC(=O)[C@H](CCSC)NC(=O)[C@H](Cc2c[nH]c3ccccc23)NC(=O)[C@H](CO)NC(=O)[C@@H](N)CC(=O)O)C(C)C)[C@@H](C)CC)CSSC[C@@H]2NC(=O)[C@@H](NC(=O)[C@H](CCCCN)NC(=O)[C@H](CC(N)=O)NC(=O)[C@H](C)NC(=O)[C@H](CC(C)C)NC(=O)[C@H](C)NC(=O)[C@H](CO)NC(=O)[C@H](Cc3ccc(O)cc3)NC(=O)[C@H](CC(C)C)NC(=O)[C@H](CCC(N)=O)NC(=O)c3ccc(-c4c5ccc(=[N+](C)C)cc-5oc5cc(N(C)C)ccc45)c(C(=O)[O-])c3)CSSC[C@H](NC(=O)CNC(=O)[C@H](C(C)C)NC(=O)[C@H](Cc3c[nH]cn3)NC2=O)C(=O)N[C@@H]([C@@H](C)O)C(=O)N[C@@H](CCCCN)C(=O)N[C@@H](CCCNC(=N)N)C(=O)N[C@@H](CO)C(=O)N[C@@H](CC(C)C)C(=O)N[C@@H](C)C(=O)N[C@@H](CCCNC(=N)N)C(=O)N[C@@H](Cc2ccccc2)C(=O)N[C@H](C(=O)O)CSSC[C@@H](C(=O)NCC(=O)N[C@@H](CCSC)C(=O)N[C@@H](CO)C(=O)N[C@H](C(=O)N[C@@H](Cc2c[nH]c3ccccc23)C(=O)N[C@@H](CO)C(=O)O)[C@@H](C)O)NC1=O | Relaxin receptor 1 (RXFP1, Homo sapiens, UniProt Q9HBX9, F76A/Y80A) | dissociation, NanoBRET | – | added: relaxin 10 µM | – | koff fast phase | 0.00867 s⁻¹
Nc1ccc(C(=O)O)cc1 | BEST1, with wild-type BEST1 (Homo sapiens, UniProt O76090, R218H) | ion current, whole-cell patch clamp | HEK293 co-expressing mutant and wild-type | concentration not given, voltage -40 mV | – | current density | -5.24 pA/pF and -3.81 pA/pF and -6.07 pA/pF and -1.62 pA/pF and -9.96 pA/pF and -1.79 pA/pF and -13.4 pA/pF and -9.08 pA/pF
Nc1nc2c(ncn2[C@@H]2O[C@@H]3COP(=O)(O)O[C@H]4[C@@H](O)[C@H](n5cnc6c(=O)[nH]c(N)nc65)O[C@@H]4COP(=O)(O)O[C@H]3[C@H]2O)c(=O)[nH]1 | Cell cycle histidine kinase CckA, CA domain (Caulobacter vibrioides, UniProt Q9X688) | isothermal titration calorimetry | Caulobacter crescentus | concentration not given, 12 °C, added: ADP 5 mM | – | binding enthalpy (ΔH) | 2.2 kcal/mol
Cc1cc(NC2=CC(=O)N(C3CCC(=O)NC3=O)C2=O)cc(C(C)(C)NCCc2ccc(C(F)(F)F)c(Cl)c2)c1 (stereo not drawn) | ZBTB11/CRBN | protein degradation, degrader, HiBiT luminescence | MOLT-4 | – | – | Dmax | 46%
Nc1ncnc2c1ncn2[C@@H]1O[C@H](COP(=O)(O)CP(=O)(O)OP(=O)(O)O)[C@@H](O)[C@H]1O | P2X purinoceptor 1 (P2RX1, Homo sapiens, UniProt P51575, M214A) | calcium influx | – | 100 nM | baseline: ionomycin response | calcium influx | 0.816% and 1.38% and 0.931% and 2.61%
Cc1cc(-c2ccnc3[nH]cc(F)c23)cc(F)c1[C@@]1(O)[C@H](C)CN(C2CCS(=O)(=O)CC2)C[C@@H]1C | STK38 | ATP probe binding, KiNativ, item: Lys1 site | HEK293T cell lysate | 0.1 µM | – | inhibition | 7.8%

A few entries again:
Compound | tested on | assay | system | setting | how to read | endpoint | result
COc1cc(C(=O)NCC2(N(C)C)CCCC2)cc(OC)c1OCc1ccccc1 | Sodium- and chloride-dependent glycine transporter 2 (Homo sapiens, UniProt Q9Y345) | isothermal titration calorimetry | – | 500 nM to 50 µM, added: protein 21 µM | – | binding | no binding
CCCCc1nc2c(s1)c(N)nc1ccccc12 | Toll-like receptor 7 (TLR7, Homo sapiens, UniProt Q9NYK1) | reporter gene, agonist, NF-κB reporter | HEK-Blue TLR7 | – | – | EC50 | inactive
O=c1nc(SCc2cc(F)cc(C(F)(F)F)c2)nc(SCc2csc3ccc(Cl)cc23)[nH]1 | DNA topoisomerase 2-beta (TOP2B, Homo sapiens, UniProt Q02880) | decatenation | – | 1.95 µM, replicate 1 | – | decatenated DNA | 100%
